# Measurements of several laboratories.
# Parts stem from different laboratories: compare values within a part only.

# Block 1 — technique: aptamer microarray, sandwich; molecule type: DNA with 2'F-ANA; sample: in vitro; concentration: 200 nM; added: Cy3 exosite-II aptamer, 400 nM; reading: higher = stronger binding; sequence: GGTTGGTGTGGTTGG
# Target: Prothrombin, mature alpha-thrombin (F2, Homo sapiens, UniProt P00734)
# Notes: whole 15-mer aptamer, many near background
Modification,mean fluorescence intensity
2'F-ANA at 3 4 5 6 10 11 12 15,55.9 a.u.
2'F-ANA at 1 11 12 13,323 a.u.
2'F-ANA at 1 2 8 11 14 15,54.5 a.u.
2'F-ANA at 1 5 8 9 14,51.1 a.u.
2'F-ANA at 3 4 5 7 9 11 12 13 15,104 a.u.
2'F-ANA at 2 7 10 12 13 14,89.2 a.u.
2'F-ANA at 1 2 5 7 10 11 12 14 15,52.5 a.u.
2'F-ANA at 1 2 3 7 9 10 12,90.9 a.u.
2'F-ANA at 2 3 6 9 11 14,379 a.u.
2'F-ANA at 1 3 5 11 12 13 14 15,58.5 a.u.
2'F-ANA at 2 3 4 6 7 9 10 12 14 15,167 a.u.
2'F-ANA at 3 4 6 7 8 10 11 12 13 14 15,161 a.u.
2'F-ANA at 1 3 8 10 12 13 15,112 a.u.
2'F-ANA at 1 2 6 7 10 12 13 14,47.7 a.u.
2'F-ANA at 4 6 7 10 12 14,59.8 a.u.
2'F-ANA at 6 8 9 12 14,242 a.u.
2'F-ANA at 3 5 7 10 11 12 13 14 15,55 a.u.
2'F-ANA at 2 9 10 11 12 15,144 a.u.

# Block 2 — technique: protein binding microarray; molecule type: double-stranded DNA, one strand shown; sample: in vitro; concentration: not given; reference: not given; reading: higher = stronger binding
# Target: Histone acetyltransferase KAT6A, winged helix 1, GST fusion (KAT6A, Homo sapiens, UniProt Q92794, residues 1-85)
# Notes: 8-mer, flanks averaged, mean of 2 arrays, mostly near background
# Construct (chain): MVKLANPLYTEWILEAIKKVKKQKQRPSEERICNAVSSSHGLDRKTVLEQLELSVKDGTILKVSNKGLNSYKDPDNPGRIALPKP
Sequence,E-score
ACCCCGCT,0.225
ATGGTCCA,-0.169
TCCCTAGA,-0.15
ACAAGCAT,-0.215
AAAGGCTT,-0.0365
CCGGAATC,0.166
ACCTAGCC,0.064
CTTATCCA,-0.229
GATTGCCC,-0.0614
GTAATACA,0.0266
CTTCCTAC,-0.1
CTGGCTAC,-0.11
AATGGCCT,-0.0148
AAGTCAAA,-0.242
ACGTCCGC,0.329
ATTGCGTA,0.162
CTGTCATC,-0.107
AGCTGGGG,-0.0903
GAAACAGA,-0.23
CACCTATC,-0.144
AACTCGGG,0.125
GACTCCTC,-0.162
GTACGGTA,0.242
AGTGCCCG,0.156
AACTCTCA,-0.0639

# Block 3 — technique: RNA Bind-n-Seq; molecule type: RNA; sample: in vitro; concentration: 365 nM; reference: no-protein control; reading: higher = stronger binding
# Target: RNA binding protein fox-1 homolog 2, RRM domain, GST-SBP tag (RBFOX2, Homo sapiens, UniProt O43251-10, residues 100-194)
# Notes: natural RNA segment, single round, ends assumed
# Shared flanks, not repeated: GGGAGUUCUACAGUCCGACGAUC … UGGAAUUCUCGGGUGCCAA
# Residues (chain): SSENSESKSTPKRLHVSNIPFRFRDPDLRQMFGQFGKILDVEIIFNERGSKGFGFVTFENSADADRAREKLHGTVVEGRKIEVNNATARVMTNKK
Sequence,RBNS enrichment (R)
CCAUGGGCCUUCAGGAAUAUUUAUACAUGGCCCAGCCUGCACUGCCCGGGCGAGGGCAGAGGACACUGGGAGCAAGGCUUAUGCCCCUGCUGCCCGUCCUGUGCUGGGGG,0.391
UACUUCUGUUCCAUGGUGUGCAGGUCUGCUUCUUAAUUCAGUGUUAUGAUAUCUUCCAGUUUUUGCUUUCAUAGGUCAGAGAUCUAUCUUGUGUGUGCGUUAGACUUGAU,0.503
AAUUUCAAUUGCCUCGAUAAGUUUCCAAGUCACUGAAAUCUGCUGAAGGUUUUACUGUAUUGUUGCACAACUUUAAGAUAAUUUUUGUCUCAAUGUCAACUUUUUUCACU,0.391
CCAGGUGAGAGGAGACUGCCAGCGAGUCCCUAGAUCUUGUAGCCAUGAUACCACACAGUCAUUUCCCAAUCAGUGCCUCACACAUCUAUCUGAUGGUGCAGUUUUGGGGU,0.345
AUCAAAGGACAUUUUUACUUUCUUGGAUUUAGAGCCAACAACUAGGAACGUACUUAUGUAGGACAGAGGUUAGCAACCUGUGGGUCAUGACCCCUUUGGGGAUCAAACUA,0.291
GUAGUGUCCUGCCUAUUCCUUUCUGGCUACCUAAACGGUUCUCACUCAGGUCCUCUGGAAUAUUCUCUGCACUCUGUCCAUCUUCUGCUGCAGCUCUGCAUGCAAUUUAG,0.463
UCUGUGACUUAGGCUAGCCCUAGGGUACUGAGGUGGCAGCUGCAUGGCUGUGGCCUGAAGUUGCACUUGCAAAGGUCCUGCUUCUACAGGACGCUGAGGUACUUACUACC,0.218
CAUAGCAAGUUUCAGGGCAGUGUGGGUAUGAGGUUGUGUCUCAAAAACAUUUGAAAGCAUGUUGUGCAUGUGUGAGAGAGUGGCGUGGCUGGUCUCAGGCUGACACUCGA,40

# Block 4 — technique: protein-binding microarray; molecule type: double-stranded DNA, one strand shown; sample: in vitro; concentration: 2540 nM top; notes: 60-bp whole probe; added: salmon DNA 0.4 mg/ml; reference: random background probes; reading: higher = stronger binding; shared flanks, not repeated: GCCTAGCAC … GTCTTGATTCGCTTGACGCTGCTG
# Target: Interferon regulatory factor 3, full length, phosphomimetic (IRF3, Homo sapiens, UniProt Q14653, residues 1-427, S386D/S396D/S398D/S402D/T404D/S405D)
# Chain of UniProt Q14653 (whole entry, unmodified, looked up): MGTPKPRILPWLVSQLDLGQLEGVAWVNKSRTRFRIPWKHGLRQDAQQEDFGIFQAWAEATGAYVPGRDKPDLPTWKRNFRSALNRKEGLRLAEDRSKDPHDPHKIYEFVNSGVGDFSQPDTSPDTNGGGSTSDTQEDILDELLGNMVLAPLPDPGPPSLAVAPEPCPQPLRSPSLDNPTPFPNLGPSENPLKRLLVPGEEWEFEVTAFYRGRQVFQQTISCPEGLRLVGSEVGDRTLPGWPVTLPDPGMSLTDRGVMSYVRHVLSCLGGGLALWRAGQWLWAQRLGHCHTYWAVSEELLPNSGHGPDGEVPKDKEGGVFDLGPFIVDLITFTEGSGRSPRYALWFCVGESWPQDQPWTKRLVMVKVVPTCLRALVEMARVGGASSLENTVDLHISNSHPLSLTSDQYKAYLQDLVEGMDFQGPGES
Sequence,fitted relative affinity [z-score]
GACGGTTTCGACACTGCGGACGTGCTA,3.27
TCAGATTTCTCAAACAGACTGTGCTAG,0.701
TTAGGACTGGGTATAGGTTAGTGCTAG,-0.723
GACGATCTTAGTATCGAGACGTGCTAG,0.847
CAAGTTTGCCTCCTTCAGTCAGTGCTA,0.503
GCCGGTTCCCTTTTCCTGACGTGCTAG,6.08
GACGATATCGGGTTTCGACACGTGCTA,1.03
TTCGCTTTCTTTAACTCATTGTGCTAG,1.96
CCAGAGTCCTGTTTGATAATGTGCTAG,0.315
GACGGACTGCTTCGCCTGACGTGCTAG,-0.673
TTATTTAGGATAGAACTATAGTGCTAG,0.371
CTCTTTCTCTGCTACCCTTTGGTGCTA,2.74
TCATTTCTCTTTCACTGACTGTGCTAG,3.87
TGAGGTATCGGACTGGGTTAGTGCTAG,0.546
TTAGATCTCAGACCGGATTAGTGCTAG,0.0105
GACGAACTGGGGTTACGAGACGTGCTA,-0.492
GGAGAAAAATCATGAAAATAGTGCTAG,-0.582
GACGGACTGCCTATCCTGACGTGCTAG,-0.31
GACGAACTGGGCTATCGAGACGTGCTA,-0.691

# Some of these lines once more (block 2):
Sequence,E-score
AACTCGGG,0.125
ACAAGCAT,-0.215
CTGTCATC,-0.107
AACTCTCA,-0.0639
CTTCCTAC,-0.1
ATTGCGTA,0.162
GTACGGTA,0.242
